# Assay results from different studies.
# Numbered parts are unrelated; each lists some results of a single study.

# Set 1 — technique: protein binding microarray; form: double-stranded DNA, one strand shown; medium: in vitro; concentration: not given; relative to: not given; reading: higher = stronger binding
# Target: Histone acetyltransferase KAT6A, both winged helices, GST fusion (KAT6A, Homo sapiens, UniProt Q92794, residues 1-181)
# Setting: 8-mer, flanks averaged, mean of 2 arrays, mostly near background
# Target sequence (chain): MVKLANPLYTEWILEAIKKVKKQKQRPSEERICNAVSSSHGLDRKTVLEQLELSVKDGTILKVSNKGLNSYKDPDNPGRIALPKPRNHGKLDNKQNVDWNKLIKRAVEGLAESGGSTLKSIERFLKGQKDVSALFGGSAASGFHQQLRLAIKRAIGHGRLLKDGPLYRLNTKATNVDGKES
Strand,E-score
CCACCGGA,0.162
AACTAGGC,-0.0474
AAGCCCTC,-0.0821

# Set 2 — technique: protein-binding microarray; form: double-stranded DNA, one strand shown; medium: in vitro; concentration: 2540 nM top; setting: 60-bp whole probe; together with: salmon DNA 0.4 mg/ml; relative to: random background probes; reading: higher = stronger binding
# Target: Interferon regulatory factor 3, full length, phosphomimetic (IRF3, Homo sapiens, UniProt Q14653, residues 1-427, S386D/S396D/S398D/S402D/T404D/S405D)
# Construct (chain): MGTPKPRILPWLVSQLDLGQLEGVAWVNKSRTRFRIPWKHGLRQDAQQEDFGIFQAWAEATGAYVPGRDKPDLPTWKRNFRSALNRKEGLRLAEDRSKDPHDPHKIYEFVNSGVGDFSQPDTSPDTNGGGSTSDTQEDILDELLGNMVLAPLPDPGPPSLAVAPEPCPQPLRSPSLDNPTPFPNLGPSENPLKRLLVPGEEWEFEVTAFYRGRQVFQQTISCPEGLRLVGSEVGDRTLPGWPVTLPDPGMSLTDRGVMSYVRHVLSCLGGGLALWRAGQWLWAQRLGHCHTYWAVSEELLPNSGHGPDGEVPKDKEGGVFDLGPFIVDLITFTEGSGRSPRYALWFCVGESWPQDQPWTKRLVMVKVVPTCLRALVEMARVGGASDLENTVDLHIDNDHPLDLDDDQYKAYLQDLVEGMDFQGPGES
Strand,fitted relative affinity [z-score]
GCCTAGCACGCCGGACTGGGGACTGGGGACGTGCTAGTCTTGATTCGCTTGACGCTGCTG,-0.636
GCCTAGCACTTAGGACTGCTCCTGCTTTAGTGCTAGGTCTTGATTCGCTTGACGCTGCTG,-0.477
GCCTAGCACGACGATTTCAGTTGCGAGACGTGCTAGGTCTTGATTCGCTTGACGCTGCTG,1.48

# Set 3 — technique: RNA Bind-n-Seq; form: RNA; medium: in vitro; concentration: 20 nM; setting: 6-mer, flanks averaged, single round; together with: 150 mM LiCl; relative to: input library; reading: higher = stronger binding
# Target: TAR DNA-binding protein 43, full length, His tag (TARDBP, Homo sapiens, UniProt Q13148, residues 1-414)
Strand,6-mer enrichment (R)
CGAGUG,1.19
CGUAUG,1.1
UUCUGU,1.04
CCUGAG,0.911

# Single results of other studies
Molecule,target,test,system,setting,scale,endpoint,value
"PhoQ, residues 284 288 289 292 302 303 ALSMDL","PhoP, residues 12 14 15 18 19 VHSCL (Escherichia coli, UniProt P23836)","Sort-seq, measured: YFP reporter",E. coli,"PhoQ-PhoP variant library, together with: 10 µM Mg2+","relative to: high Mg2+ state, higher = stronger signaling",fold induction,5.39

# A few entries again (set 2):
Strand,fitted relative affinity [z-score]
GCCTAGCACGCCGGACTGGGGACTGGGGACGTGCTAGTCTTGATTCGCTTGACGCTGCTG,-0.636
